Measurements from different studies.
Parts stem from different laboratories: compare values within a part only.
UniProt Q12851, sequence (whole entry, looked up): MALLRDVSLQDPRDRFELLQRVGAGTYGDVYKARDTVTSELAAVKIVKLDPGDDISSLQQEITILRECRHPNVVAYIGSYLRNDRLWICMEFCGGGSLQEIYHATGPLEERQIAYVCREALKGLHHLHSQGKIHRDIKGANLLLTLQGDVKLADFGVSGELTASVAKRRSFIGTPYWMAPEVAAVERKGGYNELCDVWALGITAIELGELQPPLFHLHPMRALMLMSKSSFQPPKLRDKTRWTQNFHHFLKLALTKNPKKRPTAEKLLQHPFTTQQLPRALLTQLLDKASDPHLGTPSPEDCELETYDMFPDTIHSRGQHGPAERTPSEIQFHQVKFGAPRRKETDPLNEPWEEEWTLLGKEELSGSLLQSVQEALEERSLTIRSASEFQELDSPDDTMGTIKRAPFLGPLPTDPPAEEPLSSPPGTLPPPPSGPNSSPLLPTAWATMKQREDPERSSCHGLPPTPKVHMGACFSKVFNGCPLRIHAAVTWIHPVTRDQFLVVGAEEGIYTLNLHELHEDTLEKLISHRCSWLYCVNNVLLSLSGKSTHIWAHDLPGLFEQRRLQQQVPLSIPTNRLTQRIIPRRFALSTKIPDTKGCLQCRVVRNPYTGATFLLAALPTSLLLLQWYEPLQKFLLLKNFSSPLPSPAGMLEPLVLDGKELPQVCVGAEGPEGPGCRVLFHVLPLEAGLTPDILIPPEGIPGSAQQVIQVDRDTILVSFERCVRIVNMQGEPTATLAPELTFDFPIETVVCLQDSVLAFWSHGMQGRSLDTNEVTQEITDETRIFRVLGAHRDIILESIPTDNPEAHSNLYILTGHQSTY
UniProt Q9Y6R4, sequence (whole entry, looked up): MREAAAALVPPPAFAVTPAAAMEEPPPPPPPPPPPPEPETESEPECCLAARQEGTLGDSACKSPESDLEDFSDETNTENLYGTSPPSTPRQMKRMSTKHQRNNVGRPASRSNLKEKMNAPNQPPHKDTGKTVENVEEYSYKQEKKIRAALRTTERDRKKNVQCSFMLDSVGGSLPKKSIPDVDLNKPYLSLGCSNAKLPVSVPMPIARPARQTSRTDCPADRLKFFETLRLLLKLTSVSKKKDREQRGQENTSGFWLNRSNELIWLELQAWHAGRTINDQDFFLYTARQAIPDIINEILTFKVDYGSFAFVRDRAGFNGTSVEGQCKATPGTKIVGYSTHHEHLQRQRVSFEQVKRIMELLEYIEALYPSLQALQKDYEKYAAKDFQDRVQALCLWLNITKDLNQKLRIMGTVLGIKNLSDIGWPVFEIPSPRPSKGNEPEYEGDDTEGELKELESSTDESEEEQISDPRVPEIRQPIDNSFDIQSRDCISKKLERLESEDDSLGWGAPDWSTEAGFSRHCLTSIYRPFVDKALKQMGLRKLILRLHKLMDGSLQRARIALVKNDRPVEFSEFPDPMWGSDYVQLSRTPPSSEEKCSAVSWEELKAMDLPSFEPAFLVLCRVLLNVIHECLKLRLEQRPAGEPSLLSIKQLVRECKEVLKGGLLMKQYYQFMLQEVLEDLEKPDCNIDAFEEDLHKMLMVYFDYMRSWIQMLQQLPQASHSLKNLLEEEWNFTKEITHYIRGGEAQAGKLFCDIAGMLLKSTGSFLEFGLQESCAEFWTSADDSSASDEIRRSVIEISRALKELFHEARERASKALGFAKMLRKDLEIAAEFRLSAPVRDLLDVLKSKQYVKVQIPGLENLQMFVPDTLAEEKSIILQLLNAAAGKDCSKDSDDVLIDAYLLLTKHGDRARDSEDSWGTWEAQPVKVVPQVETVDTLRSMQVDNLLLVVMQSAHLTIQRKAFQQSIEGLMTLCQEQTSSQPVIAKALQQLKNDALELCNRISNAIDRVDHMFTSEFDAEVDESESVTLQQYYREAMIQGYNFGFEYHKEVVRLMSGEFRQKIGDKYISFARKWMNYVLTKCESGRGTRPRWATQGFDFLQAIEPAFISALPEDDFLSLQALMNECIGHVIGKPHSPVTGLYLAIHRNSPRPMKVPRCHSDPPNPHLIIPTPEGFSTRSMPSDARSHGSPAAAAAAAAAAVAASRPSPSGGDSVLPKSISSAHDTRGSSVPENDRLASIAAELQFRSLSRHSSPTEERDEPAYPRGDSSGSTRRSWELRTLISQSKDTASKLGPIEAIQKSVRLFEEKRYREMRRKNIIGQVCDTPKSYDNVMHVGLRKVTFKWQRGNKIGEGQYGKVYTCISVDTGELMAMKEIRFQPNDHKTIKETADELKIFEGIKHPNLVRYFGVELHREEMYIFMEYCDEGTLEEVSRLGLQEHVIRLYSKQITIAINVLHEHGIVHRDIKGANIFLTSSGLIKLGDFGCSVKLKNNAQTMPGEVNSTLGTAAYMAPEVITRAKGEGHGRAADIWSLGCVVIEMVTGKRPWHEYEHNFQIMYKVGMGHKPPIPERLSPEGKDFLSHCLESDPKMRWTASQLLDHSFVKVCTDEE
UniProt O75460, sequence (whole entry, looked up): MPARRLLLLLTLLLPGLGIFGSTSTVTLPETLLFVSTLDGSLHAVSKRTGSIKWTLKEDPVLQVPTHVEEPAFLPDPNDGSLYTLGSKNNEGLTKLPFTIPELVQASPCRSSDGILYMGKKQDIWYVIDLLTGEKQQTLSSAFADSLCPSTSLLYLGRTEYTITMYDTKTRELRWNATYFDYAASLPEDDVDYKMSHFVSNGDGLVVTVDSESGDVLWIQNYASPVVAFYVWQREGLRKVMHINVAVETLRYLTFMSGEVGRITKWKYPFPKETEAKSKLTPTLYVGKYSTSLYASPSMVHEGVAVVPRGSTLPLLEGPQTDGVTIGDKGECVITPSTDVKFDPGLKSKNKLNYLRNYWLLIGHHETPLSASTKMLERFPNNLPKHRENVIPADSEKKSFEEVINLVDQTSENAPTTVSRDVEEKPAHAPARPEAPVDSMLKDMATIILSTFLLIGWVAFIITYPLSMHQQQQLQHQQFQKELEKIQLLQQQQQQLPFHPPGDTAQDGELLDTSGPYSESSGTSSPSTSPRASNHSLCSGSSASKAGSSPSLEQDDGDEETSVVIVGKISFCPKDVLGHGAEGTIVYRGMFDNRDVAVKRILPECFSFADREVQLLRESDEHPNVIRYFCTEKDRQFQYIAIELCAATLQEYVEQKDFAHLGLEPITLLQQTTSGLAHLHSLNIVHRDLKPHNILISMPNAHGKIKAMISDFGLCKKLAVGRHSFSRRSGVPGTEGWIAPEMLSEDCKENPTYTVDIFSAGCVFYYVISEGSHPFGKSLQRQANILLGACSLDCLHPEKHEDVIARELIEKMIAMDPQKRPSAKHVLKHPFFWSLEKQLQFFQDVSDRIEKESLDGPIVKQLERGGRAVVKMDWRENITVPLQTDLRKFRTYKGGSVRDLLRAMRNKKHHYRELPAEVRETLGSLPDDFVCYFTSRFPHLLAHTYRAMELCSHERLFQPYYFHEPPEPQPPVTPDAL
UniProt Q9HBH9, sequence (whole entry, looked up): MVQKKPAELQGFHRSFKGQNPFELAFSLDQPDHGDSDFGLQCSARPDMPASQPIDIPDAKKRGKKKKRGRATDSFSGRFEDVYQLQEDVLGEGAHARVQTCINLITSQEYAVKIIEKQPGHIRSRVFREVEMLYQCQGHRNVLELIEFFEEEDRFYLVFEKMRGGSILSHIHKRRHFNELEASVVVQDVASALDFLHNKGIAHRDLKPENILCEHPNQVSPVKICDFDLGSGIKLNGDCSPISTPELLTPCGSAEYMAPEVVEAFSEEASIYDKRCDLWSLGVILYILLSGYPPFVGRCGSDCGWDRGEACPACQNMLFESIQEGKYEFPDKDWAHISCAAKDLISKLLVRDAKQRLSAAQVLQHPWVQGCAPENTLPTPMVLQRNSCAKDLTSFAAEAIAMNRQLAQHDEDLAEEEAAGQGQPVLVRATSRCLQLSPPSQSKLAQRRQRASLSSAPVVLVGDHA
UniProt Q86YV6, sequence (whole entry, looked up): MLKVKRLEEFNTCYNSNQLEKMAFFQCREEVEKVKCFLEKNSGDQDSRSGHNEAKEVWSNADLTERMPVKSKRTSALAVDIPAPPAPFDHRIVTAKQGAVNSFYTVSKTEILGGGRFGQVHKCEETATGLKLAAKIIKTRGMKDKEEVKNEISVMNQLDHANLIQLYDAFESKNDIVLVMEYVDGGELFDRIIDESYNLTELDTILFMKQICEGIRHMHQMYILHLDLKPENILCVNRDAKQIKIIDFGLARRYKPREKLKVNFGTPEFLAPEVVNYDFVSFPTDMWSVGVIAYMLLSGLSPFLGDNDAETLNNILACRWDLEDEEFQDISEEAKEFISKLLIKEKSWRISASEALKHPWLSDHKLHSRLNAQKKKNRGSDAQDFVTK
UniProt P68400, sequence (whole entry, looked up): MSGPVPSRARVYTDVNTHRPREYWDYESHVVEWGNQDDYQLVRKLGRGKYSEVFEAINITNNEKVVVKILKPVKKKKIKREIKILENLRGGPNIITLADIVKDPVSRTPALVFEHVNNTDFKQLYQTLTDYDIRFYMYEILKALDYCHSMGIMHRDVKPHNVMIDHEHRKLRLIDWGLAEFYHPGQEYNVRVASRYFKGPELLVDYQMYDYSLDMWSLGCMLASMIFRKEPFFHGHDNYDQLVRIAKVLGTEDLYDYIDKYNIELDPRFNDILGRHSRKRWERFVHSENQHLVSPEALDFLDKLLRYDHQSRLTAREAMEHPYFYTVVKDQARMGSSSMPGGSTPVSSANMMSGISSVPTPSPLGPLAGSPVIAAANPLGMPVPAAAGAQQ
UniProt O15264, sequence (whole entry, looked up): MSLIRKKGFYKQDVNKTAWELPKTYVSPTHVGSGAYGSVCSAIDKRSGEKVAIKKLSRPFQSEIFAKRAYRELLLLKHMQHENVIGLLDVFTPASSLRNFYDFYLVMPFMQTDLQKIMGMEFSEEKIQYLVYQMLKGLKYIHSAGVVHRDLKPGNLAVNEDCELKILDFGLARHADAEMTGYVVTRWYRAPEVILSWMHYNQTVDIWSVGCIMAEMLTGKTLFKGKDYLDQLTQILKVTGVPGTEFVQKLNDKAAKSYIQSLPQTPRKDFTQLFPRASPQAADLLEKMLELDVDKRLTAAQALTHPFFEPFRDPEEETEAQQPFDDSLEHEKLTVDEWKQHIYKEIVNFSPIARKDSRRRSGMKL

Series 1
SMILES: O=Nc1c(-c2c(O)[nH]c3ccccc23)[nH]c2ccccc12
Observed: enzyme activity
Action: inhibitor
Tested at: 0.5 µM
Baseline: control
| target | remaining activity [%] |
| --- | --- |
| IRAK4 (Homo sapiens, UniProt Q9NWZ3) | 102 |
| KIT (Homo sapiens, UniProt P10721) | 73.2 |
| MAP4K2 (Homo sapiens, UniProt Q12851) | 57.3 |
| CHEK1 (Homo sapiens, UniProt O14757) | 65.3 |
| CSNK2A1 (Homo sapiens, UniProt P68400) | 78.2 |
| MAPK13 (Homo sapiens, UniProt O15264) | 105 |
| BTK (Homo sapiens, UniProt Q06187) | 59.3 |

Series 2
SMILES: Cc1noc([C@H]2C[C@@H](c3ccc(C(F)(F)F)cc3)CN(C(=O)N3CCS(=O)(=O)C3)C2)n1
Tested at: 1 µM
| target | observed | method | remaining binding [%] |
| --- | --- | --- | --- |
| PIK3CA (Homo sapiens, UniProt P42336, Q546K) | cell-free assay | competition with immobilised ligand | 100 |
| AAK1 (Homo sapiens, UniProt Q2M2I8) | binding | – | 100 |
| MAP3K4 (Homo sapiens, UniProt Q9Y6R4) | cell-free assay | competition with immobilised ligand | 72 |
| EPHA7 (Homo sapiens, UniProt Q15375) | cell-free assay | competition with immobilised ligand | 100 |
| STK11 (Homo sapiens, UniProt Q15831) | cell-free assay | competition with immobilised ligand | 100 |
| FLT3 (Homo sapiens, UniProt P36888, D835V/ITD) | cell-free assay | competition with immobilised ligand | 89 |
| MYLK4 (Homo sapiens, UniProt Q86YV6) | cell-free assay | competition with immobilised ligand | 100 |
| CDK13 (Homo sapiens, UniProt Q14004) | cell-free assay | competition with immobilised ligand | 96 |
| BMP2K (Homo sapiens, UniProt Q9NSY1) | cell-free assay | competition with immobilised ligand | 100 |
| CHUK (Homo sapiens, UniProt O15111) | cell-free assay | competition with immobilised ligand | 100 |
| MAP4K2 (Homo sapiens, UniProt Q12851) | cell-free assay | competition with immobilised ligand | 100 |
| TXK (Homo sapiens, UniProt P42681) | binding | competition with immobilised ligand | 92 |
| EGFR (Homo sapiens, UniProt P00533, del747-750/T751S) | cell-free assay | competition with immobilised ligand | 83 |
| ERN1 (Homo sapiens, UniProt O75460) | cell-free assay | competition with immobilised ligand | 100 |
| HASPIN (Homo sapiens, UniProt Q8TF76) | cell-free assay | competition with immobilised ligand | 100 |
| AKT2 (Homo sapiens, UniProt P31751) | cell-free assay | competition with immobilised ligand | 96 |
| MKNK2 (Homo sapiens, UniProt Q9HBH9) | cell-free assay | competition with immobilised ligand | 100 |

Series 3
Observed: AlphaScreen signal
Method: AlphaScreen counter screen
Matrix: His6 peptide without bromodomain
Tested at: 50 µM
Setting: assay interference check
| SMILES | inhibition [%] |
| --- | --- |
| CCc1cc(-c2n[nH]c(C)c2-c2ccc3c(c2)OCCO3)c(O)cc1O | 63.1 |
| CCOC(=O)C(C)Sc1ccc2nnc(-c3ccc(OC)c(OC)c3)n2n1 (stereo not drawn) | 14.6 |
| NC(=O)c1ccsc1NC(=O)CSc1nnc(-c2ccco2)n1-c1ccccc1 | 11.1 |
| Cn1cc(C2=C(c3ccc(Cl)cc3Cl)C(=O)NC2=O)c2ccccc21 | 16.4 |
| CNC(=O)c1c(F)cccc1Nc1nc(Nc2cc3c(cc2OC)CCN3C(=O)CN(C)C)nc2[nH]ccc12 | 37.4 |

Series 4
Organism: Plasmodium berghei
Action: inhibitor
Cell line: Huh-7
Strain: liver stage
Tested at: 10 µM
Time: 24 h
Baseline: untreated control
| Structure (SMILES) | infection rate [%] |
| --- | --- |
| CC1(C)O[C@@H]2C[C@H]3[C@@H]4C[C@H](F)C5=CC(=O)CC[C@]5(C)[C@H]4[C@@H](O)C[C@]3(C)[C@]2(C(=O)CO)O1 | 96.9 |
| CC(=O)O[C@]1(C(C)=O)CC[C@H]2[C@@H]3C[C@H](C)C4=CC(=O)CC[C@]4(C)[C@H]3CC[C@@]21C | 65.8 |
| CN1CCN(C2=Nc3ccccc3Oc3ccc(Cl)cc32)CC1 | 102 |
| CC(C)(C)NC[C@H](O)COc1cccc2c1CCCC2=O | 109 |
| O=C(CCNNC(=O)c1ccncc1)NCc1ccccc1 | 123 |
| CC(C)(C)NC[C@H](O)c1ccc(O)c(CO)c1 | 109 |
| C[C@]12CCC(=O)C=C1CC[C@@H]1[C@@H]2[C@@H](O)C[C@@]2(C)[C@H]1CC[C@]2(O)C(=O)COP(=O)(O)O | 98.8 |

Excerpt of the above (series 1):
| target | remaining activity [%] |
| --- | --- |
| BTK (Homo sapiens, UniProt Q06187) | 59.3 |
| CHEK1 (Homo sapiens, UniProt O14757) | 65.3 |
| MAPK13 (Homo sapiens, UniProt O15264) | 105 |
